{"data": "Results gathered from unrelated publications", "note": "Every numbered part comes from another study and shows a few of its results, in no order. Values joined by “and” are separate records of one study, mostly repeats; a detail may differ.", "chain of UniProt O15264 (whole entry, looked up)": "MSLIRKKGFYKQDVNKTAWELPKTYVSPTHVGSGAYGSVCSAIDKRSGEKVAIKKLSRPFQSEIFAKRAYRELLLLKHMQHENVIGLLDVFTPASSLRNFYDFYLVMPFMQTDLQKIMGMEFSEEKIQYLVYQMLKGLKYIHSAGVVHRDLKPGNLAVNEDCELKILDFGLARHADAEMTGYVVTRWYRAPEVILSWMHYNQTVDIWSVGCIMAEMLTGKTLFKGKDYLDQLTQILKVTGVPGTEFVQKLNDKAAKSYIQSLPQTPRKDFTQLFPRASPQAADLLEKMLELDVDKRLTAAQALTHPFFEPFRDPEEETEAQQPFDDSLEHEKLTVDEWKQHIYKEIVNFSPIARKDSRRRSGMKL", "chain of UniProt P53671 (whole entry, looked up)": "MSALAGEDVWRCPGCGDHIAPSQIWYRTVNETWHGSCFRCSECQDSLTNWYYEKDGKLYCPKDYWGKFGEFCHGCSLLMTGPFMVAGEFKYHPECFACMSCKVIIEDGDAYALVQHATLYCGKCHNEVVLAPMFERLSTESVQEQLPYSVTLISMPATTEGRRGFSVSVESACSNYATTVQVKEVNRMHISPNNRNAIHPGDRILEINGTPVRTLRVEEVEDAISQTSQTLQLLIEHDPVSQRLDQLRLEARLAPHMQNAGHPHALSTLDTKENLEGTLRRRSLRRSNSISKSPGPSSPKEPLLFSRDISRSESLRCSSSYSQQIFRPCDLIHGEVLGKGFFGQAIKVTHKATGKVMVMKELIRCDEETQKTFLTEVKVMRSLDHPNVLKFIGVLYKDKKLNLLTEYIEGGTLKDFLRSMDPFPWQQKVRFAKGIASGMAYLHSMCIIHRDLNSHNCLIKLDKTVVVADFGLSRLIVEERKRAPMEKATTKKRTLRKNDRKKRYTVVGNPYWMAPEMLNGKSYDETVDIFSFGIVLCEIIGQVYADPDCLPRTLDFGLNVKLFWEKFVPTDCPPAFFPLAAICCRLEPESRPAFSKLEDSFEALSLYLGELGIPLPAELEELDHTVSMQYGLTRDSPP", "chain of UniProt Q96L34 (whole entry, looked up)": "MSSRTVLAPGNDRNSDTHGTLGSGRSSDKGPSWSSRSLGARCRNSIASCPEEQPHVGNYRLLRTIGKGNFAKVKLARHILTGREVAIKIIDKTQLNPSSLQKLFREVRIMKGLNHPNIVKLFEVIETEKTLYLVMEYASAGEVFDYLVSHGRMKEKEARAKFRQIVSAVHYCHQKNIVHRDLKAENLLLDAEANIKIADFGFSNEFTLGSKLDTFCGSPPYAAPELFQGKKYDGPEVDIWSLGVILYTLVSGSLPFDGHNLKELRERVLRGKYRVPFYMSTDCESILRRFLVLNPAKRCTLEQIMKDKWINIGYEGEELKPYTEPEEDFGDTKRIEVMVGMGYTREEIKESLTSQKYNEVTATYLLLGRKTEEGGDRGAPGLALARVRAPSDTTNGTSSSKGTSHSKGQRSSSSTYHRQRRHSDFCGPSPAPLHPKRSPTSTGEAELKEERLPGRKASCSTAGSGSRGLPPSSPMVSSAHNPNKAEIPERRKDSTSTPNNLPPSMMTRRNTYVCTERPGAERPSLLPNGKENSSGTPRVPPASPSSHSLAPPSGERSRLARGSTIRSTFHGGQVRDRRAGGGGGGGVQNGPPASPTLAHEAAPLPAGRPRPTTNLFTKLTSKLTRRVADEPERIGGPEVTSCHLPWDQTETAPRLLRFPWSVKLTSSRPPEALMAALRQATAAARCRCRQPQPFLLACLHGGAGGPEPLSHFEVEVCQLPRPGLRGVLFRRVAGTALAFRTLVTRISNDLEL", "chain of UniProt P57058 (whole entry, looked up)": "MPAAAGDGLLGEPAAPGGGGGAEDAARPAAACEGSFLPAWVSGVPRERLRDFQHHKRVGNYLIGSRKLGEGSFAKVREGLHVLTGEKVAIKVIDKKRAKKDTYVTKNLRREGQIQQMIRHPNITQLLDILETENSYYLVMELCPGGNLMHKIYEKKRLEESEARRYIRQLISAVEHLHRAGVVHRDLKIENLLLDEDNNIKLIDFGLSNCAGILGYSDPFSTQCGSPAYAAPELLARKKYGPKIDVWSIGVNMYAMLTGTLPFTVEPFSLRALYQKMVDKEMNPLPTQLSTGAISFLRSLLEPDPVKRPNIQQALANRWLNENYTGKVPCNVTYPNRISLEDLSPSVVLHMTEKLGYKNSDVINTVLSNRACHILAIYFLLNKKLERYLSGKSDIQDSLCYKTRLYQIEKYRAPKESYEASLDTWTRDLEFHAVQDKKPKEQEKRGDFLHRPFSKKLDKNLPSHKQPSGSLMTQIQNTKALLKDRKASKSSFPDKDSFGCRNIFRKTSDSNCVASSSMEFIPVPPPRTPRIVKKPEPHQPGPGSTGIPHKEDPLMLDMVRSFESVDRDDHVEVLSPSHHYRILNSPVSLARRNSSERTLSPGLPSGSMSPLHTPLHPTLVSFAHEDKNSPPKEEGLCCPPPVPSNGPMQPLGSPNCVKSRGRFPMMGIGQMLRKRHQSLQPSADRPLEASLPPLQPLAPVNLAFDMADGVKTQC", "chain of UniProt Q99558 (whole entry, looked up)": "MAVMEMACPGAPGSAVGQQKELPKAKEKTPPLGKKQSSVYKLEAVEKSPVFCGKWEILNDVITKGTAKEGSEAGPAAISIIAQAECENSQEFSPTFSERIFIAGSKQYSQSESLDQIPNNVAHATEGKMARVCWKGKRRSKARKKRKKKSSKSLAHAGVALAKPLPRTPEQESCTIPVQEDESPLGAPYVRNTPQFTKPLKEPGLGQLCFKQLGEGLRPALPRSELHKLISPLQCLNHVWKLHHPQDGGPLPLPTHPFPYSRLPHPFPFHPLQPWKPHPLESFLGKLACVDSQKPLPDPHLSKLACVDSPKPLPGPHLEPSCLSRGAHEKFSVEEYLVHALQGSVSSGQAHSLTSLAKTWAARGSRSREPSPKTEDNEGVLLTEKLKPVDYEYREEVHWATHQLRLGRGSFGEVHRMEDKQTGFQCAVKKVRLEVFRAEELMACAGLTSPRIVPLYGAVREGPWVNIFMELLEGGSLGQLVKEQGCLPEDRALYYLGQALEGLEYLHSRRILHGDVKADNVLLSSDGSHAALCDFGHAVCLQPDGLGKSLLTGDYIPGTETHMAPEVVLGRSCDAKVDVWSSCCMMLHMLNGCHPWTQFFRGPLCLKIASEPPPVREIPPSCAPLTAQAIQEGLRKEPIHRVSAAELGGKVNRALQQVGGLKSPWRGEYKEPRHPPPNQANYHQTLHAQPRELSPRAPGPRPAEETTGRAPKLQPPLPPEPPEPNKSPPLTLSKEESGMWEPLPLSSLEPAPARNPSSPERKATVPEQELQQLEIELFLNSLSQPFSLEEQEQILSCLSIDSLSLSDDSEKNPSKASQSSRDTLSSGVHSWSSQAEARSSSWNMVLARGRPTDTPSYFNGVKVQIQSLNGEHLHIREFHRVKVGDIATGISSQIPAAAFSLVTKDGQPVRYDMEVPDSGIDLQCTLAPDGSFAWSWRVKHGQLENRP", "chain of UniProt Q9BYT3 (whole entry, looked up)": "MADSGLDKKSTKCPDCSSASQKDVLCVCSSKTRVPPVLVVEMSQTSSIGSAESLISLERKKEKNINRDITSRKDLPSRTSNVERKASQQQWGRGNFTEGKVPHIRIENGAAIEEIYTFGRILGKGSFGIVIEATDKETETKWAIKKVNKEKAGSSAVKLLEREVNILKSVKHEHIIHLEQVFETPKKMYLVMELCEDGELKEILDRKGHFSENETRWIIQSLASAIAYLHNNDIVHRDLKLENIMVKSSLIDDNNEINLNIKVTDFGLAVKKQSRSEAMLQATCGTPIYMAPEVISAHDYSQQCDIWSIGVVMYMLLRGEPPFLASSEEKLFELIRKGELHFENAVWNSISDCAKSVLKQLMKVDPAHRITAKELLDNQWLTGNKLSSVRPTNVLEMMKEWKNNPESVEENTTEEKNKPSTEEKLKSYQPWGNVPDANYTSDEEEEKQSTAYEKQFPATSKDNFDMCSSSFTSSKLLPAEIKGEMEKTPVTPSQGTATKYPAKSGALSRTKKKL"}
{"data": "Study 1", "SMILES": "O=C1CCC(N2Cc3cc(C4CCN(Cc5ccccc5)CC4)ccc3C2=O)C(=O)N1 (stereo not shown)", "matrix": "plasma"}
{"system": "ICR mouse, male", "conditions": "intravenous, 1 mg/kg, 0.083 h", "plasma concentration": "191 ng/mL and 237 ng/mL"}
{"system": "Sprague Dawley rat, male", "conditions": "oral, 3 mg/kg, 6 h", "plasma concentration": "17.4 ng/mL and 16.3 ng/mL"}
{"system": "male ICR mice", "conditions": "intravenous, 1 mg/kg, 0.5 h", "plasma concentration": "89 ng/mL"}
{"system": "Sprague Dawley rat, male", "conditions": "oral, 3 mg/kg, 8 h", "plasma concentration": "6.98 ng/mL and 7.1 ng/mL"}
{"system": "male ICR mice", "conditions": "intravenous, 1 mg/kg, 24 h", "plasma concentration": "not detected"}
{"system": "male ICR mice", "conditions": "oral, 3 mg/kg, 6 h", "plasma concentration": "9.95 ng/mL"}
{"data": "Study 2", "target": "Serine/threonine-protein kinase ULK1 (ULK1, Homo sapiens, UniProt O75385)", "observed": "enzyme activity", "mode": "inhibitor", "tested at": "0.5 µM", "baseline": "control", "chain of UniProt O75385 (whole entry, looked up)": "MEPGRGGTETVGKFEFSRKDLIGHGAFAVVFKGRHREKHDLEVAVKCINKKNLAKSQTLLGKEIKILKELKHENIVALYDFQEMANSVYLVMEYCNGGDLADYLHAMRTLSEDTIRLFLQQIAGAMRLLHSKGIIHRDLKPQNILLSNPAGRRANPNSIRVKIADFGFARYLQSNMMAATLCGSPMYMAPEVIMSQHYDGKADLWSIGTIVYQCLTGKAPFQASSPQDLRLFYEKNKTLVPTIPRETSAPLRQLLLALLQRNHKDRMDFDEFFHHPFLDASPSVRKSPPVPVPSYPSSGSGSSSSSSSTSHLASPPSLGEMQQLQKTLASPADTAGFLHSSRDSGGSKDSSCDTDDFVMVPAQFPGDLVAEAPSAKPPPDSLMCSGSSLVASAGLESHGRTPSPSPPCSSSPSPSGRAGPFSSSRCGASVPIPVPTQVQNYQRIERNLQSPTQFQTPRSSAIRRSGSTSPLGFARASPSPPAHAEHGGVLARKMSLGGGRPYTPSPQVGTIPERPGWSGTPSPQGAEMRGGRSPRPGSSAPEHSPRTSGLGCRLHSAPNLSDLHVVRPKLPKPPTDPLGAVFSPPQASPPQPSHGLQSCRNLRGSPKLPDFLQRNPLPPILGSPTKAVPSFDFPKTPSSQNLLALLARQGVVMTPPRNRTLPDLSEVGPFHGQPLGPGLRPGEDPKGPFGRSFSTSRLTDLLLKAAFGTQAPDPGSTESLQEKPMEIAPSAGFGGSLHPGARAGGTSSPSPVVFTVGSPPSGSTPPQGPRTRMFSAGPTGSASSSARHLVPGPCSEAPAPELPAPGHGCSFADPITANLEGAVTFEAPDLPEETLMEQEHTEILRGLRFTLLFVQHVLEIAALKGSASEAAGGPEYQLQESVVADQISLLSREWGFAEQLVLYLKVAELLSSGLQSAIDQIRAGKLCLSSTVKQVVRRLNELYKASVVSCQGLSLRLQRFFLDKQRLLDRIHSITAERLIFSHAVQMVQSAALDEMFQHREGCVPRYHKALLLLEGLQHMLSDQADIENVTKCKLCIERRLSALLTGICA"}
{"Compound": "CNC(=O)c1cc(Oc2ccc(NC(=O)Nc3ccc(Cl)c(C(F)(F)F)c3)cc2)ccn1", "remaining activity [%]": 94.3}
{"Compound": "Cc1cccc(-c2[nH]c(C(C)(C)C)nc2-c2ccc3c(c2)OCO3)n1", "remaining activity [%]": 82.7}
{"Compound": "CC(C)[C@H](CO)Nc1nc(Nc2cc(N)cc(Cl)c2)c2ncn(C(C)C)c2n1", "remaining activity [%]": 41.5}
{"Compound": "COc1ccc(OC)c2c(=S)c3ccccc3[nH]c12", "remaining activity [%]": 114}
{"Compound": "Cn1c2ccccc2c2c3c(c4c5ccccc5n(CCC#N)c4c21)CNC3=O", "remaining activity [%]": 106}
{"Compound": "O=C(O)c1ccc2c3c1cccc3c(=O)n1c3ccccc3nc21", "remaining activity [%]": 83.5}
{"Compound": "O=C(CCCc1ccc(-c2ccccc2F)cc1)Nc1ccc(O)cc1", "remaining activity [%]": 106}
{"Compound": "Cn1sc(=O)n(Cc2ccccc2)c1=O", "remaining activity [%]": 98.9}
{"Compound": "COc1cc2ncnc(Nc3ccc(Oc4ccccc4)cc3)c2cc1OC", "remaining activity [%]": 89.5}
{"Compound": "O=C1NC(=O)C(c2cn(CCCn3ccnc3)c3ccccc23)=C1Nc1ccccc1", "remaining activity [%]": 90.1}
{"Compound": "OCC(O)CCON=C1C(c2c(O)[nH]c3ccccc23)=Nc2ccccc21 (stereo not shown)", "remaining activity [%]": 98.3}
{"Compound": "CN(C)c1ccc(C=C2C(=O)Nc3ccccc32)cc1", "remaining activity [%]": 91.9}
{"Compound": "COc1cc2ncnc(Nc3ccc(F)c(Cl)c3)c2cc1OCCCN1CCOCC1", "remaining activity [%]": 93}
{"Compound": "Nc1ncnc2n[nH]c(Nc3ccc(F)cc3)c12", "remaining activity [%]": 95.6}
{"Compound": "Cc1ccc(Nc2nccc(N(C)c3ccc4c(C)n(C)nc4c3)n2)cc1S(N)(=O)=O", "remaining activity [%]": 97.3}
{"data": "Study 3", "Compound": "O=C(NCCCC1CCCCC1)c1ccc(CNC(=O)c2cnn(-c3ccccc3)c2C(F)(F)F)cc1", "observed": "cell-free assay", "method": "competition with immobilised ligand", "tested at": "0.1 µM"}
{"target": "TNIK (Homo sapiens, UniProt Q9UKE5)", "remaining binding [%]": 100}
{"target": "PIM3 (Homo sapiens, UniProt Q86V86)", "remaining binding [%]": 100}
{"target": "DYRK1A (Homo sapiens, UniProt Q13627)", "remaining binding [%]": 99}
{"target": "MARK4 (Homo sapiens, UniProt Q96L34)", "remaining binding [%]": 98}
{"target": "HUNK (Homo sapiens, UniProt P57058)", "remaining binding [%]": 100}
{"target": "CAMK1D (Homo sapiens, UniProt Q8IU85)", "remaining binding [%]": 100}
{"target": "STK33 (Homo sapiens, UniProt Q9BYT3)", "remaining binding [%]": 87}
{"target": "STK10 (Homo sapiens, UniProt O94804)", "remaining binding [%]": 100}
{"target": "LCK (Homo sapiens, UniProt P06239)", "remaining binding [%]": 100}
{"target": "MAP3K1 (Homo sapiens, UniProt Q13233)", "remaining binding [%]": 65}
{"target": "MAPK15 (Homo sapiens, UniProt Q8TD08)", "remaining binding [%]": 100}
{"target": "LIM domain kinase 2 (LIMK2, Homo sapiens, UniProt P53671)", "remaining binding [%]": 100}
{"target": "MAP2K1 (Homo sapiens, UniProt Q02750)", "remaining binding [%]": 89}
{"target": "MAPK13 (Homo sapiens, UniProt O15264)", "remaining binding [%]": 100}
{"target": "CDK13 (Homo sapiens, UniProt Q14004)", "remaining binding [%]": 100}
{"target": "Ribosomal protein S6 kinase alpha-3, N-terminal kinase domain (RPS6KA3, Homo sapiens, UniProt P51812)", "remaining binding [%]": 100}
{"target": "TLK1 (Homo sapiens, UniProt Q9UKI8)", "remaining binding [%]": 100}
{"target": "CDK11B (Homo sapiens, UniProt P21127)", "remaining binding [%]": 100}
{"target": "MAP3K14 (Homo sapiens, UniProt Q99558)", "remaining binding [%]": 90}
{"data": "Study 4", "cell line": "HaCaT", "tested at": "100 µM", "time": "36 h"}
{"SMILES": "COc1cc2c(cc1O)[C@@H](Cc1ccc(O)c(Oc3ccc(C[C@@H]4c5cc(OC)c(OC)cc5CCN4C)cc3)c1)N(C)CC2", "viability [%]": 9.91}
{"SMILES": "C=C1c2cccc(O)c2C(=O)C2=C(O)[C@]3(O)C(=O)C(C(N)=O)=C(O)[C@@H](N(C)C)[C@@H]3[C@@H](O)[C@H]12", "viability [%]": 95}
{"SMILES": "CCCCCCCCCCC[C@@H](C[C@@H]1OC(=O)[C@H]1CCCCCC)OC(=O)[C@H](CC(C)C)NC=O", "viability [%]": 10.5}
{"note": "For quick reference, copied from above (study 2):"}
{"Compound": "OCC(O)CCON=C1C(c2c(O)[nH]c3ccccc23)=Nc2ccccc21 (stereo not shown)", "remaining activity [%]": 98.3}
{"Compound": "CN(C)c1ccc(C=C2C(=O)Nc3ccccc32)cc1", "remaining activity [%]": 91.9}
{"Compound": "COc1cc2ncnc(Nc3ccc(F)c(Cl)c3)c2cc1OCCCN1CCOCC1", "remaining activity [%]": 93}
